Experimental data from different studies.
Protocols differ between the studies behind these lines. Numbers after ± are the reported error.

| Structure (SMILES) | cell line | test | conditions | scale | measurement | result |
| --- | --- | --- | --- | --- | --- | --- |
| Oc1ccc(/C=C/c2cccc(O)c2)cc1 | HL-60 | ROS generation, inhibitor, DCFH-DA | with: PMA |  | IC50 | > 25 µg/mL |
| O=c1c(/C=C/c2ccccn2)nc2ccccc2n1Cc1ccccc1 | HeLa 229 | cell growth or viability, MTT | 72 h |  | IC50 | > 50 µM |
| COc1cccc2c1C(=O)c1c(O)c3c(c(O)c1C2=O)C[C@@](O)(C(=O)CO)C[C@@H]3O[C@H]1C[C@H](N)[C@H](O)[C@H](C)O1 | A549 | qPCR, refers to: mTOR | IC50, 24 h | relative to: untreated cancer cells | mRNA level | 0.18 ± 0.07 fold |
| CC1(C)CCCC(C)(C2CCC3(C)C2C(O)CC2C4(C)CCC(OC(=O)Nc5ccccc5)C(C)(C)C4C(O)CC23C)O1 (centres unmarked) | Hep3B | HRE reporter gene, inhibitor | 24 h, hypoxia |  | IC50 | 1.58 µM |
| O=c1cc(-c2ccccc2)oc2cc(O)cc(O)c12 | U-937 | cell growth or viability, ATP luminescence | 24 h |  | IC50 | 217 µM |
| Cc1ccc(C=Nn2c(-c3ccc(NC(=O)c4cccnc4)cc3)n[nH]c2=S)cc1 | RAW264.7 | IL-6 release, inhibitor, ELISA | LPS-stimulated |  | IC50 | 0.96 µM |
| O=C(Cn1cc(COc2ccccc2-c2nc(Cc3ccccc3)no2)nn1)NNC(=S)Nc1ccccc1 | A549 | qPCR, refers to: EGFR | IC50, 24 h | relative to: untreated cancer cells | mRNA level | 0.29 ± 0.08 fold |
| O=C1C(SCCO)=C(SCCO)C(=O)c2ccccc21 | hiPSC hepatic differentiation phase I | cell viability, CCK-8 | 48 h |  | IC50 | 11.3 ± 1.56 µM |
| Cc1ccc(NCSc2nnc(-c3nn(CNc4ccc(C)cc4)c(=O)c4ccccc34)o2)cc1 | WI-38 | cell growth or viability, MTT | 48 h |  | IC50 | 62.8 µM |
| CC(C)C[C@H]1NC(=O)[C@H](CC(=O)O)NC(=O)CNC(=O)[C@H](CCCNC(=N)N)NC(=O)[C@H](C)NC1=O | WM-115 | WM-115 cell adhesion, inhibitor | 1 h, with: immobilized CagL^E87A |  | IC50 | 0.67 µM |
| COc1cc(/C=C/C(=O)N2CCC=CC2=O)cc(OC)c1OC | MDA-MB-468 | cell growth or viability, MTT |  |  | IC50 | 4.2 µM |
| Cc1ccc(C#Cc2cccc(-c3nn(-c4nc(C(=O)O)cs4)c(C(C4CC4)C4CC4)c3Cc3ccc(S(N)(=O)=O)c(F)c3)c2)s1 | MIA PaCa-2 | cell growth or viability | 48 h |  | IC50 | 20.9 µM |
| Nn1c(SCC(=O)Nc2cccc(Br)c2)nnc1-c1ccc(NC(=O)c2cccnc2)cc1 | RAW264.7 | NO release, inhibitor, Griess | LPS-stimulated |  | IC50 | 92.5 µM |
| CNC(=O)c1cc(Oc2ccc(NC(=O)Nc3ccc(Cl)c(C(F)(F)F)c3)cc2)ccn1 | MHCC97H with NICD overexpression | cell viability, MTT |  |  | IC50 | 4.88 µM |
| CC(C)(C)OC(=O)n1c(-c2ccccc2)cc2ccccc21 | RAW264.7 | NO release, inhibitor, Griess | 50 µM, 20 h, LPS-stimulated |  | inhibition | 92.4% |
| Oc1cccc(/C=C/c2ccccc2)c1 | HL-60 | ROS generation, inhibitor, DCFH-DA | with: PMA |  | IC50 | > 25 µg/mL |
| O=c1[nH]c2ccccc2nc1/C=C/c1ccccc1[N+](=O)[O-] | HeLa 229 | cell growth or viability, MTT | 72 h |  | IC50 | > 50 µM |
| CNC(=O)c1cc(Oc2ccc(NC(=O)Nc3ccc(Cl)c(C(F)(F)F)c3)cc2)ccn1 | A-375 | cell growth or viability, SRB | 72 h |  | IC50 | 3.2 µM |
| O=C(CSc1nnc(-c2ccc(NC(=O)c3cccnc3)cc2)o1)Nc1ccc([N+](=O)[O-])cc1 | RAW264.7 | reactive oxygen species, inhibitor, fluorescence | LPS-stimulated |  | IC50 | 0.03 µM |
| CCCNC(=O)Nc1ccc(S(=O)(=O)Oc2cccnc2I)cc1 | MOLM-13 | cell growth or viability, MTT | 48 h |  | IC50 | 3.7 µM |
| O=C1Nc2ccc(Br)cc2C1n1nc(-c2c(O)c3ccccc3oc2=O)cc1-c1ccc(Cl)cc1 (centres unmarked) | A-375 | cell growth or viability, SRB | 72 h |  | IC50 | 6.18 µM |
| O=C1C(=Cc2ccccc2)CN(C(=O)C#CC(=O)N2CC(=Cc3ccccc3)C(=O)C(=Cc3ccccc3)C2)CC1=Cc1ccccc1 | CEM T-lymphocytes | cell proliferation | 3 d |  | IC50 | 3.35 ± 1.27 µM |
| Cc1ccc(-c2cc(C(F)(F)F)nn2-c2ccc(S(N)(=O)=O)cc2)cc1 | RAW264.7 | reactive oxygen species, inhibitor, fluorescence | LPS-stimulated |  | IC50 | 14.3 µM |
| CCCCCCCC/C=C\CCCCCCCC(=O)OC[C@H](COP(=O)([O-])OCC[N+](C)(C)C)OC(=O)Cc1c(C)n(C(=O)c2ccc(Cl)cc2)c2ccc(OC)cc12 | MCF-10A | cell growth or viability, SRB | 72 h |  | IC50 | 102 µM |

| Structure (SMILES) | cell line | test | conditions | scale | measurement | result |
| --- | --- | --- | --- | --- | --- | --- |
| CC(C)=CCn1c(-c2ccccc2)cc2ccccc21 | RAW264.7 | NO release, inhibitor, Griess | 50 µM, 20 h, LPS-stimulated |  | inhibition | 33.1% |
| CC[C@H](C)C(=O)O[C@H]1CCC=C2C=C[C@H](C)[C@H](CC[C@@H](O)C[C@@H](O)CC(=O)O)[C@H]21 | DLD-1 | cell viability | 0.2% FBS |  | IC50 | 3.2 µM |
| C[C@H]1CN(C2COC2)CCN1c1ccc(Nc2cc(-c3ccnc(N4CCn5c(cc6c5CC(C)(C)C6)C4=O)c3CO)cn(C)c2=O)nc1 | Ramos | CD69 expression | BTK signalling |  | IC50 | 0.0029 µM |
| O=c1[nH]cc(F)c(=O)[nH]1 | SH-SY5Y | cell growth or viability, MTT | 72 h |  | IC50 | 107 µM |
| CC(=O)c1ccc(NC(=O)CSc2nnc(-c3ccc(NC(=O)c4cccnc4)cc3)n2N)cc1 | RAW264.7 | TNF-α release, inhibitor, ELISA | LPS-stimulated |  | IC50 | 19.7 µM |
| COC(=O)c1c(-c2ccc(C)cc2)c2n(c1C(=O)OC)CCn1cccc1-2 | MDA-MB-231 | cell growth or viability, MTT | 48 h |  | IC50 | 73.2 µM |
| CC(C)c1ncccc1OS(=O)(=O)c1ccc(NC(=O)NCCCl)cc1 | MOLM-13 | cell growth or viability, MTT | 48 h |  | IC50 | 2.8 µM |
| COc1ccc(NCSc2nnc(-c3nn(CNc4ccc(OC)cc4)c(=O)c4ccccc34)o2)cc1 | WI-38 | cell growth or viability, MTT | 48 h |  | IC50 | 68.6 µM |
| CCCCCOC(=O)Nc1nc(=O)n([C@@H]2O[C@H](C)[C@@H](O)[C@H]2O)cc1F | ASPC1 | cell growth or viability, MTT | 72 h |  | IC50 | > 200 µM |
| Cn1c(=O)c(/C=C/c2ccccn2)nc2ccccc21 | HeLa 229 | cell growth or viability, MTT | 72 h |  | IC50 | 14.6 µM |
| COc1ccc(/C=C/c2cc(O)cc(O[C@@H]3O[C@H](CO)[C@@H](O)[C@H](O)[C@H]3O)c2)cc1O | HL-60 | reactive oxygen species, inhibitor, fluorescence |  |  | IC50 | 0.55 µg/mL |
| O=C1C(n2nc(-c3c(O)c4ccccc4oc3=O)cc2-c2ccc(F)cc2)c2ccccc2N1Cc1ccccc1 (centres unmarked) | A-375 | cytotoxicity, SRB | 72 h |  | IC50 | 3.8 µM |
| O=c1[nH]c2ccccc2nc1/C=C/c1ccc2ccccc2c1 | HeLa 229 | cell growth or viability, MTT | 72 h |  | IC50 | 21.3 µM |
| CCN1C(=O)C(n2nc(-c3c(O)c4ccccc4oc3=O)cc2-c2ccc(Br)cc2)c2ccccc21 (centres unmarked) | A-375 | cell growth or viability, SRB | 72 h |  | IC50 | 68.4 µM |
| O=C(CCOCCOc1c2cccc1Cc1cccc(c1O)Cc1cccc(c1O)Cc1cccc(c1O)C2)Nc1ccc(-n2nc(-c3ccccc3O)nc2-c2ccccc2O)cc1 | HepaRG | cell viability, MTT | 72 h, with: Fe(III) 20 µM |  | IC50 | 37 ± 3 µM |
| CC(=O)O[C@@]12CO[C@@H]1C[C@H](O)[C@@]1(C)C(=O)[C@H](O)C3=C(C)[C@@H](OC(=O)[C@H](O)[C@@H](NC(=O)OC(C)(C)C)c4ccccc4)C[C@@](O)([C@@H](OC(=O)c4ccccc4)[C@H]21)C3(C)C | MCF7 expressing CYP1B1 | cell growth, MTT | TCDD induced, no inhibitor |  | IC50 | 159 µM |
| O=C(CSc1nnc(-c2ccc(NC(=O)c3cccnc3)cc2)o1)Nc1ccccc1Cl | RAW264.7 | reactive oxygen species, inhibitor, fluorescence | LPS-stimulated |  | IC50 | 9 µM |
| C[C@H]1[C@@H](O)O[C@@H]2O[C@@]3(C)CC[C@H]4[C@H](C)CC[C@@H]1[C@@]24OO3 | MCF7/ADR multidrug-resistant | cell growth, MTT | 24 h |  | IC50 | 14.8 µM |
| NCCC(=O)N[C@@H](Cc1cnc[nH]1)C(=O)O | SH-SY5Y | cell growth or viability, SRB | 24 h |  | IC50 | > 200 µM |
| O=c1[nH]nc(-c2nnc(S)o2)c2ccccc12 | WI-38 | cell growth or viability, MTT | 48 h |  | IC50 | 74.9 µM |
| O=C(O)Cc1ccccc1Nc1c(Cl)cccc1Cl | RAW264.7 | TNF-α release, inhibitor, ELISA | LPS-stimulated |  | IC50 | 7.46 µM |
| CC(=NN=C(N)[S-])C(C)=NN=C(N)[S-].N.N.O=[N+]([O-])[O-].[Co+3] | A549 | cell viability, MTT | 24 h hypoxic, 48 h normoxic, hypoxic treatment |  | IC50 | > 500 µM |
| COc1cc(OC)c2cc(C(=O)NCc3ccc(Br)cc3)cc(O)c2c1 | C26, HepG2, MCF7 | cytotoxicity, MTT | range over three cell lines |  | IC50 | 14.5 to 25.1 µM |

A few entries again:
| Structure (SMILES) | cell line | test | conditions | scale | measurement | result |
| --- | --- | --- | --- | --- | --- | --- |
| Cc1ccc(C=Nn2c(-c3ccc(NC(=O)c4cccnc4)cc3)n[nH]c2=S)cc1 | RAW264.7 | IL-6 release, inhibitor, ELISA | LPS-stimulated |  | IC50 | 0.96 µM |
| O=c1cc(-c2ccccc2)oc2cc(O)cc(O)c12 | U-937 | cell growth or viability, ATP luminescence | 24 h |  | IC50 | 217 µM |
| O=c1[nH]c2ccccc2nc1/C=C/c1ccc2ccccc2c1 | HeLa 229 | cell growth or viability, MTT | 72 h |  | IC50 | 21.3 µM |
| COc1ccc(/C=C/c2cc(O)cc(O[C@@H]3O[C@H](CO)[C@@H](O)[C@H](O)[C@H]3O)c2)cc1O | HL-60 | reactive oxygen species, inhibitor, fluorescence |  |  | IC50 | 0.55 µg/mL |
| Cc1ccc(NCSc2nnc(-c3nn(CNc4ccc(C)cc4)c(=O)c4ccccc34)o2)cc1 | WI-38 | cell growth or viability, MTT | 48 h |  | IC50 | 62.8 µM |
